Experimental data of several laboratories.
Parts stem from different laboratories: compare values within a part only.

Set 1 — technique: protein-binding microarray; form: double-stranded DNA, one strand shown; matrix: in vitro; tested at: 2200 nM top; notes: 60-bp whole probe; together with: salmon DNA 0.4 mg/ml; baseline: random background probes; direction: higher = stronger binding; quantity: fitted relative affinity
Target: Interferon regulatory factor 7, full length, phosphomimetic (IRF7, Homo sapiens, UniProt Q92985, residues 1-503, S471D/S472D/S475D/S476D/S477D/S483D/S484D/S487D)
Residues (chain): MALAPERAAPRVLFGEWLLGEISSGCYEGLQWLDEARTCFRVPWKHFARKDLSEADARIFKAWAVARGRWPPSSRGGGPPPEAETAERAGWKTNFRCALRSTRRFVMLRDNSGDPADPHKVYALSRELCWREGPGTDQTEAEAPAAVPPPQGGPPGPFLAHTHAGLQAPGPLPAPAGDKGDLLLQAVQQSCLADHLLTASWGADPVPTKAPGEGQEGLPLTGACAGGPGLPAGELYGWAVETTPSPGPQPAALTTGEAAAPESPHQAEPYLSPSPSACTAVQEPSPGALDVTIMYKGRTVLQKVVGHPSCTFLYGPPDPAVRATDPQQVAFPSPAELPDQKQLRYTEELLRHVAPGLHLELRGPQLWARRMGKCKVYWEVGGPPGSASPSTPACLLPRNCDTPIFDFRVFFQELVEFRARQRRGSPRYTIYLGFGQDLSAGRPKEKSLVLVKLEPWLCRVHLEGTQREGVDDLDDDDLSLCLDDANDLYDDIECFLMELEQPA
GCCTAGCACTTAGGTTTCCTACTGCTTGAGTGCTAGGTCTTGATTCGCTTGACGCTGCTG: 1.03 z-score
GCCTAGCACCTCACCATCATCCTCACTGCGTGCTAGGTCTTGATTCGCTTGACGCTGCTG: 1.32 z-score
GCCTAGCACGACGAACGGGGGACTGGAGACGTGCTAGTCTTGATTCGCTTGACGCTGCTG: 0.617 z-score

Set 2 — technique: RNA Bind-n-Seq; form: RNA; matrix: in vitro; tested at: not given; baseline: input RNA pool; direction: higher = stronger binding; quantity: bound/input enrichment
Target: RING finger protein unkempt homolog, zinc fingers 1-6, GST-SBP tag (UNK, Homo sapiens, UniProt Q9C0B0, residues 30-357)
UniProt Q9C0B0, sequence (30-357, looked up): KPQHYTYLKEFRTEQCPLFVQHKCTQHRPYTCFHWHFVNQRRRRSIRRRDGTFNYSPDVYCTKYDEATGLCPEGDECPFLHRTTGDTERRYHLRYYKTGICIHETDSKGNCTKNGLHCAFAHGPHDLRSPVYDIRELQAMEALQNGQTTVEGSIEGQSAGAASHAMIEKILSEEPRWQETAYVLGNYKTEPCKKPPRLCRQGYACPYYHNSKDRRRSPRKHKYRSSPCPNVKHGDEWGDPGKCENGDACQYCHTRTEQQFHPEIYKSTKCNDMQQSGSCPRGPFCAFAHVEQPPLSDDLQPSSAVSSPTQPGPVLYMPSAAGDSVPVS
Notes: RNA with constant flanks, human and mouse sites, ends assumed
GGGAGUUCUACAGUCCGACGAUCGAGUUGCUAAAUUUUGCUUGAAGCACUUUAAUAUAACUUGAAUAUUAUCUAUUAUAAAAGUAACUACAAAUAAGUGUUGUGAAUAGAUUUUAUUAUAAAUCAGAGAACUGUUUUCUCCCUCAACAGAGGAUUGAGCAUCA: 0.295 ratio
GGGAGUUCUACAGUCCGACGAUCAGUUAUACCCACCAUACUGGUUCUUCACUUUUUGGUCAGCCCUUUCUUAUGGCUGUACCACGAAACAAUACUGAAGACAAACUUUAUAAUCUCCUGCUCUUGAGAAUGUGCCGAUAUGUCCAACAGAGGAUUGAGCAUCA: 0.37 ratio
GGGAGUUCUACAGUCCGACGAUCGCUUCCUUAGGUCUAGAGAAGUUGGUAAGCCCUCCAGCCUCAGCCGCUGCUUCCAGCCCUAGUUCUUCUCCAUCUCCACAGCCUGUUUCAGAGCUUGACAUGUCCUCAGAGCCACCUCAGCAACAGAGGAUUGAGCAUCA: 0.673 ratio
GGGAGUUCUACAGUCCGACGAUCAGGCAUUUACUGUACAUUUCUCCCGAGAAAAGAGUGAGAUCGUGUCAUCUCAUGCUCCCCAUCCGCAGGUCACUUCCUGUAGAAAUAUGGACUAACUUACACCUCGUUUUACUGCAAUCACAACAGAGGAUUGAGCAUCA: 0.28 ratio

Set 3 — technique: universal PBM; form: double-stranded DNA, one strand shown; matrix: in vitro; tested at: not given; direction: higher = stronger binding; quantity: E-score
Target: Sal-like protein 4, full length isoform B (SALL4, Homo sapiens, UniProt Q9UJQ4-2, residues 1-616)
Notes: 8-mer, flanks averaged, mean of replicates
Construct (chain): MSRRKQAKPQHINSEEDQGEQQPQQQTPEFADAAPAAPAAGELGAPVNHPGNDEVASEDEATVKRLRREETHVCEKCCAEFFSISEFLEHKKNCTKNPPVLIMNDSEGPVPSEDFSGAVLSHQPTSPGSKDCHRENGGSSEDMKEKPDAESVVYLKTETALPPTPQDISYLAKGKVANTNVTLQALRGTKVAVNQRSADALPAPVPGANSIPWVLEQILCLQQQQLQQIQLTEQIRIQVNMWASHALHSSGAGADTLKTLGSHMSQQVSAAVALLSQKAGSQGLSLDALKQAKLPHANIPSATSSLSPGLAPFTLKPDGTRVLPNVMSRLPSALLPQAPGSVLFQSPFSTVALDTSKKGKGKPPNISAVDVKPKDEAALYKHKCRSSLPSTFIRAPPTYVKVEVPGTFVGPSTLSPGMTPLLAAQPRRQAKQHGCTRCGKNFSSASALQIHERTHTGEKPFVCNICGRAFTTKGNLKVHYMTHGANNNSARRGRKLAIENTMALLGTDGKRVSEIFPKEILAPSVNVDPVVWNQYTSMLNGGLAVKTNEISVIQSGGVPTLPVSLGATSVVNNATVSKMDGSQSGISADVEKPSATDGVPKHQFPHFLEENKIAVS
GCGAAAGC: -0.189
CACACTCA: 0.174
CAGCAGAA: -0.0393

Single results of other studies
PhoQ, residues 284 288 289 292 302 303 TASMAF  fold induction (PhoP, residues 12 14 15 18 19 NQAHL (Escherichia coli, UniProt P23836); Sort-seq, measured: YFP reporter; E. coli; PhoQ-PhoP variant library, together with: 10 µM Mg2+; baseline: high Mg2+ state, higher = stronger signaling): 12.8

Some of these lines once more (set 1):
GCCTAGCACCTCACCATCATCCTCACTGCGTGCTAGGTCTTGATTCGCTTGACGCTGCTG: 1.32 z-score
